Assay results from different studies.
Lines come from different studies, so protocols differ. Values joined by “and” are separate records of one study, mostly repeats; a detail may differ. Numbers after ± are the reported error.
CASP3: Caspase-3 (CASP3, Homo sapiens, UniProt P42574)
RACK1: Small ribosomal subunit protein RACK1 (RACK1, Homo sapiens, UniProt P63244)
GBA2: Beta-glucosidase (GBA2, Homo sapiens, UniProt Q9HCG7)
T1: preQ1-I riboswitch RNA; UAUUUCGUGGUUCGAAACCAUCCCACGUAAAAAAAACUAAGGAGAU

Compound	target or system	test	test system	setting	scale	quantity	result
CCCC[C@H](NC(=O)[C@H](CC(=O)O)NC(C)=O)C(=O)N1[C@H](C(=O)N[C@@H](CC(=O)O)C(=O)COC(=O)c2c(C)cccc2C)C[C@@H]2CCCC[C@@H]21	CASP3	enzyme activity, inhibitor				kinact/KI	1.67e+06 M⁻¹ s⁻¹
O=C(CCCCCCS)Nc1ccccc1	Histone deacetylase 8 (HDAC8, Homo sapiens, UniProt Q9BY41)	ITC	triethanolamine buffer	pH 7.5		TΔS	4.3 kcal/mol
C=CC(=O)N1C[C@H](C)N(c2nc(OC[C@@]34CCCN3C[C@H](F)C4)nc3c(F)c(-c4ccc(F)c5sc(N)c(C#N)c45)c(C(F)(F)F)cc23)C[C@H]1C	GTPase KRas, GDP-bound (KRAS, Homo sapiens, UniProt P01116, A146T)	SPR				dissociation rate constant koff	0.000968 ± 0.00029 s⁻¹
NCc1c[nH]c2nc(N)[nH]c(=O)c12	T1, preQ1-I riboswitch RNA	in-line probing		35-45 h		Kd	450 nM
C=CC(=O)N1CCCC(n2c(=O)c3ncccc3n(Cc3ccc(Oc4ccccc4)cc3)c2=O)C1 (centres unmarked)	Rho GTPase-activating protein 25 (ARHGAP25, Homo sapiens, UniProt P42331)	thermal proteome profiling, item: ARHGAP25		10 µM, destabilized proteins, unit not given	relative to: vehicle	melting temperature shift	-5.25
CC(=O)N[C@@H](CC(=O)O)C(=O)N[C@@H](CC(C)C)C(=O)N[C@H](C(=O)N[C@@H](C)C(=O)N[C@@H](CC(=O)O)C(=O)COC(=O)c1c(C)cccc1C)[C@@H](C)O	CASP3	enzyme activity, inhibitor				kinact/KI	88500 M⁻¹ s⁻¹
Cc1ccc2oc(=O)cc(Cn3ccnc3)c2c1	Alpha-1B adrenergic receptor (ADRA1B, Homo sapiens, UniProt P35368)	flow cytometry binding	COS-7	500 µM, tracer 6.25 nM		inhibition of binding	42.8 ± 3.85%
CCCCCC(O)/C=C/C=O (centres unmarked)	RACK1	competitive isoTOP-ABPP, item: GNB2L1 cysteine peptide	proteome, soluble, MDA-MB-231	100 µM, together with: iodoacetamide probe	relative to: DMSO over compound-treated, higher = stronger cysteine blockade	isoTOP-ABPP competition ratio	1.8
Cc1ccc(CSc2nc(N)n(S(=O)(=O)c3ccc4c(c3)CCO4)n2)cc1	Lysophospholipase-like protein 1 (LYPLAL1, Homo sapiens, UniProt Q5VWZ2)	enzyme activity, activator, gel-based ABPP	purified protein	concentration not given, together with: FP-rhodamine	relative to: DMSO	probe labeling increase	2.4 fold
C/C1=C\CC/C(C)=C/CC(C)(C)/C=C/C1	Transient receptor potential cation channel subfamily V member 1 (TRPV1, Homo sapiens, UniProt Q8NER1)	inhibitor, whole-cell patch clamp		100 µM, 5 min, together with: capsaicin 100 nM		remaining current	17 ± 4%
COC1CN([C@H]2CC[C@H]([C@@]3(C)Oc4c(Cl)cc(C(=O)NCc5c(SC)cc(C)[nH]c5=O)c(C)c4O3)CC2)C1		RNA-seq, item: LYPD1	human, whole blood	dose not given, 24 h	relative to: pretreatment baseline	log2 fold change	4.61
O=C(C(C(F)(F)F)C(F)(F)F)N1CCOc2ccccc21	Chymotrypsinogen A (Bos taurus, UniProt P00766)	enzyme activity, inhibitor				IC50	inactive
CC(=O)N[C@H](CCc1ccccc1)C(=O)N[C@@H](CCCC(=O)O)C(=O)N1C[C@H](O)C[C@H]1C(=O)N[C@@H](CC(=O)O)C(=O)COC(=O)c1c(C)cccc1C	CASP3	enzyme activity, inhibitor				kinact/KI	6000 M⁻¹ s⁻¹
OC[C@@H]1[C@@H](O)[C@H](O)[C@@H](O)CN1CCCCCOCc1ccc(-c2ccccc2F)cc1	GBA2	inhibitor, 4MU-β-D-glucopyranoside	HEK293T homogenates overexpressing GBA2		relative to: GBA1 IC50 over GBA2 IC50	selectivity ratio	300
O=C(N[C@@H](Cc1ccc(OCCCCC2CCNCC2)cc1)C(=O)O)c1nc2ccccc2o1.O=C(O)C(F)(F)F	Integrin alpha-IIb/beta-3 (Homo sapiens, UniProt P05106+P08514)	inhibitor, flow cytometry	washed platelets, human	7.5 nM, together with: ADP and Alexa647-fibrinogen	relative to: untreated	fibrinogen binding	0.948 and 0.892
CC1(C)C[C@@H](Nc2cccc(-c3sc(C(=O)O)c(OCC(=O)O)c3Cl)c2)CCN1S(=O)(=O)Cc1cccc(NC(=O)CN2CCC(c3ccc4c(c3)oc(=O)n4C3CCC(=O)NC3=O)CC2)c1 (some centres unmarked)	Tyrosine-protein phosphatase non-receptor type 2 (Ptpn2, Mus musculus, UniProt Q06180)	degrader, Western blot	B16-F10	0.0001 µM		remaining protein	84.9% and 130%
O=C(NC[C@@H](Cc1ccc(F)cc1)N1CCC(O)(C(F)(F)F)CC1)C1(c2ccc(Cl)cc2)CCCC1	Transient receptor potential cation channel subfamily A member 1 (TRPA1, Homo sapiens, UniProt O75762, M912A)	calcium influx, agonist			relative to: M912A mutant over wild type	EC50 fold change	24.7
N=C(N)c1ccc(-c2csc(-c3ccc(C(=N)N)cc3)n2)cc1	Protein arginine N-methyltransferase 5 (PRMT5, Homo sapiens, UniProt O14744)	enzyme activity, inhibitor, radiometric		20 µM		remaining activity	109%
OC[C@H]1[C@@H](O)[C@H](O)[C@@H](O)CN1CCCCCOCc1ccc(-c2ccccc2)cc1F	GBA2	inhibitor, 4MU-β-D-glucopyranoside	HEK293T homogenates overexpressing GBA2		relative to: GBA1 IC50 over GBA2 IC50	selectivity ratio	20000
CC(C)Oc1cc(Cl)ccc1CNc1cc(-c2ccccc2)nc2ncnn12	G-protein coupled receptor 3 (GPR3, Homo sapiens, UniProt P46089, M156A)	cAMP level, cAMP GloSensor		10 µM	higher = more cAMP	cAMP luminescence	4630 a.u. and 5620 a.u. and 5380 a.u. and 6490 a.u.
OC[C@@H]1[C@@H](O)[C@H](O)[C@@H](O)CN1CCCCCOCCc1ccsc1	GBA2	inhibitor, 4MU-β-D-glucopyranoside	HEK293T homogenates overexpressing GBA2		relative to: GBA1 IC50 over GBA2 IC50	selectivity ratio	3000
O=C1c2sc(-c3ccc(N4CCC(CO)CC4)nc3F)nc2CCN1c1cccnc1	TAR DNA-binding protein 43, aggregated (TARDBP, Homo sapiens, UniProt Q13148)	radioligand binding	human, FTLD-TDP type B extract	together with: radioligand 13.55 nM		specific binding	5.24 nM and 3.25 nM
OC[C@@H]1[C@@H](O)[C@H](O)[C@@H](O)CN1CCCCCOCc1ccc(-c2cncnc2)cc1	GBA2	inhibitor, 4MU-β-D-glucopyranoside	HEK293T homogenates overexpressing GBA2		relative to: GBA1 IC50 over GBA2 IC50	selectivity ratio	400
N[C@H]1CC[C@H](Nc2nccc(-c3cccnc3Oc3ccc(NC(=O)NC4CC4)c4ccccc34)n2)CC1	RACK1	kinobead competition pulldown, item: GNB2L1	HEK293/HCT116 lysate mixture	10 µM, 1 h, 4 °C	lower = stronger competition	log2 LFQ intensity	20.1 and 19.9 and 21.9 and 21.6
OC[C@@H]1[C@@H](O)[C@H](O)[C@@H](O)CN1CCCCCOCc1ccc(-c2ccc(Br)cc2)cc1	GBA2	inhibitor, 4MU-β-D-glucopyranoside	HEK293T homogenates overexpressing GBA2		relative to: GBA1 IC50 over GBA2 IC50	selectivity ratio	58000
O=C1c2sc(-c3ccc(N4CCC(F)C4)nc3F)nc2CCN1c1cccnc1 (centres unmarked)	Amyloid-beta precursor protein, amyloid-beta insoluble aggregates (APP, Homo sapiens, UniProt P05067)	radioligand filter binding	AD brain insoluble fraction	3.125 nM	higher = more binding	specific binding	47.5 a.u. and 81 a.u.
